Measurements of several laboratories.
Each line is one published result; not all experiments were run side by side. “And” joins repeats or separate records; there may be more than shown. ± gives the spread as reported.
ALB: Albumin (ALB, Homo sapiens, UniProt P02768)

Structure (SMILES) = CCCCC[C@H](O)/C=C/[C@H]1[C@H](O)CC(=O)[C@@H]1C/C=C\CCCC(=O)O; target = PTGER1 (Homo sapiens, UniProt P34995, G92T); assay = IP1 accumulation, agonist; test system = AD293; setting = 1 h, EP1 G92T mutant; quantity = Emax; value = 108 ± 3.25%
Structure (SMILES) = O=c1cc(CO)occ1[O-].[Cl-].[W+4].c1cc[cH-]c1.c1cc[cH-]c1; target = ALB; assay = binding, fluorescence quenching; setting = 303 K; quantity = Gibbs free energy change; value = -5.82 kcal/mol
Structure (SMILES) = COc1cc(-c2[o+]c3cc(O)cc(O)c3cc2O[C@@H]2O[C@H](CO)[C@@H](O)[C@H](O)[C@H]2O)ccc1O; target = ALB; assay = binding, visible absorption; setting = 50 µM, pH 7, added: HSA up to 200 µM; how to read = baseline: without HSA; quantity = bathochromic shift; value = 34 nm
Structure (SMILES) = C=CC[C@@H]1c2ccc(OC)c(OC)c2CN2CCc3cc4c(cc3[C@H]12)OCO4; target = P2X purinoceptor 7 (P2RX7, Homo sapiens, UniProt Q99572); assay = ATP-evoked current, inhibitor, whole-cell patch clamp; test system = HEK293 transfected; setting = 1 µM; quantity = remaining activity; value = 18.6%
Structure (SMILES) = N#Cc1ccc2c(-c3ccncc3)c(-c3ccc(F)cc3)nn2c1; target = Carbon catabolite-derepressing protein kinase (SNF1, Candida albicans, UniProt P52497); assay = kinase binding, competitor, MIB/MS competition, refers to: SNF1; test system = Candida albicans cell lysate; setting = 1 µM; how to read = baseline: DMSO; quantity = log2 fold change; value = 0.051
Structure (SMILES) = N[C@H](CNC(=O)c1ccc(-c2cccc(F)c2)s1)C(=O)O; target = Glutamate receptor ionotropic, NMDA 1, with GluN2A (Grin1, Rattus norvegicus, UniProt P35439); setting = added: glutamate 300 µM; quantity = Hill slope; value = 1.65
Structure (SMILES) = O=C(COP(=O)(O)O)[C@@H](O)[C@H](O)[C@H](O)COP(=O)(O)O; target = Splicing factor U2AF 65 kDa subunit (Homo sapiens, UniProt P26368); assay = thermal proteome profiling, refers to: U2AF2; test system = HepG2 cell lysate; setting = concentration not given, 57 over 37 °C, mean; how to read = baseline: compound over control; quantity = thermal stability ratio; value = 0.523
Structure (SMILES) = Nc1ncnc2c1ncn2[C@@H]1O[C@H](COP(=O)(O)CP(=O)(O)OP(=O)(O)O)[C@@H](O)[C@H]1O; target = P2X purinoceptor 1 (P2RX1, Homo sapiens, UniProt P51575, R139A); assay = saturation binding; test system = HEK293; setting = 52 nM; quantity = specific binding; value = 2100 CCPM and 3210 CCPM
Structure (SMILES) = Cc1cc(-c2ccnc3[nH]cc(F)c23)cc(F)c1[C@@]1(O)[C@H](C)CN(C(=O)CN)C[C@@H]1C; target = JAK1 (Homo sapiens, UniProt P23458); assay = ATP/ADP probe binding, KiNativ; test system = HEK293T lysate; setting = 0.1 µM, activation loop domain 1; quantity = probe labelling inhibition; value = 0.6%
Structure (SMILES) = Nc1ncnc2c1ncn2[C@@H]1O[C@H](COP(=O)(O)OP(=O)(O)O)[C@@H](O)[C@H]1O; target = GUK1 (Homo sapiens, UniProt Q16774, R137A); assay = binding, ITC; quantity = ΔG; value = -5.33 kcal/mol
Structure (SMILES) = CCCC[C@H]1C(=O)N(C)[C@@H](CCCC)C(=O)N[C@@H](CCCCNC(=O)CN2CCN(CC(=O)O)CCN(CC(=O)O)CC2)C(=O)N[C@H](C(=O)NCC(N)=O)CSCC(=O)N[C@@H](Cc2ccc(O)cc2)C(=O)N(C)[C@@H](C)C(=O)N[C@@H](CC(N)=O)C(=O)N2CCC[C@H]2C(=O)N[C@@H](Cc2c[nH]cn2)C(=O)N[C@@H](CCC(=O)O)C(=O)N2C[C@H](O)C[C@H]2C(=O)N[C@@H](Cc2c[nH]c3ccccc23)C(=O)N[C@@H](CO)C(=O)N[C@@H](Cc2cn(CC(=O)O)c3ccccc23)C(=O)N1C [gallium-68 labelled]; target = CD274 (Homo sapiens, UniProt Q9NZQ7); assay = PET/CT; test system = human, primary tumour; quantity = SUVmax; value = 5
Structure (SMILES) = C[C@H](N)C(=O)Nc1ccc2ccccc2c1; target = Puromycin-sensitive aminopeptidase (Rattus norvegicus, UniProt F1M9V7); assay = substrate; setting = MW 100 kDa; quantity = kcat; value = 27.2 s⁻¹
Structure (SMILES) = CC[C@H](C)[C@@H]1NC(=O)[C@H](Cc2ccc(-c3ccccc3)cc2)NC(=O)[C@H](CC(C)C)NC(=O)[C@@H]2CCCN2C(=O)[C@@H](NC(=O)[C@H](CCCNC(=N)N)NC(=O)[C@H](CCCNC(=N)N)NC(C)=O)CSSC[C@@H](C(=O)N[C@@H](CCCNC(=N)N)C(=O)N[C@@H](CCCNC(=N)N)C(N)=O)NC(=O)[C@H](CC2CCCCC2)NC(=O)[C@@H]2C[C@@H](OCC(=O)O)CN2C(=O)[C@H](CC(=O)O)NC(=O)[C@H](Cc2ccc(O)cc2)NC(=O)[C@H](CO)NC1=O; target = GTPase KRas, GDP-bound (KRAS, Homo sapiens, UniProt P01116, G12D); assay = affinity selection mass spectrometry; setting = mixture library 4, added: protein titration up to 2.5 µM; how to read = lower is stronger binding; quantity = lowest bound protein concentration; value = 0.08 µM
Structure (SMILES) = Nc1nn(-c2ccccc2)nc1C(=O)O; target = ADORA2A (Homo sapiens, UniProt P29274); assay = binding, radioligand competition; setting = 10 µM, added: [3H]ZM241385; quantity = displacement; value = 5 ± 4%
Structure (SMILES) = CCCCCC=O; target = uncharacterized protein (Spodoptera exigua, UniProt F1CEY0); assay = binding, competitor, fluorescence displacement; setting = 20 µM, pH 7.4, added: 1-NPN 20 µM; how to read = baseline: 1-NPN alone; quantity = relative fluorescence; value = 80.1%

Repeated from above:
Structure (SMILES) = Cc1cc(-c2ccnc3[nH]cc(F)c23)cc(F)c1[C@@]1(O)[C@H](C)CN(C(=O)CN)C[C@@H]1C; target = JAK1 (Homo sapiens, UniProt P23458); assay = ATP/ADP probe binding, KiNativ; test system = HEK293T lysate; setting = 0.1 µM, activation loop domain 1; quantity = probe labelling inhibition; value = 0.6%
Structure (SMILES) = Nc1ncnc2c1ncn2[C@@H]1O[C@H](COP(=O)(O)OP(=O)(O)O)[C@@H](O)[C@H]1O; target = GUK1 (Homo sapiens, UniProt Q16774, R137A); assay = binding, ITC; quantity = ΔG; value = -5.33 kcal/mol
Structure (SMILES) = CCCC[C@H]1C(=O)N(C)[C@@H](CCCC)C(=O)N[C@@H](CCCCNC(=O)CN2CCN(CC(=O)O)CCN(CC(=O)O)CC2)C(=O)N[C@H](C(=O)NCC(N)=O)CSCC(=O)N[C@@H](Cc2ccc(O)cc2)C(=O)N(C)[C@@H](C)C(=O)N[C@@H](CC(N)=O)C(=O)N2CCC[C@H]2C(=O)N[C@@H](Cc2c[nH]cn2)C(=O)N[C@@H](CCC(=O)O)C(=O)N2C[C@H](O)C[C@H]2C(=O)N[C@@H](Cc2c[nH]c3ccccc23)C(=O)N[C@@H](CO)C(=O)N[C@@H](Cc2cn(CC(=O)O)c3ccccc23)C(=O)N1C [gallium-68 labelled]; target = CD274 (Homo sapiens, UniProt Q9NZQ7); assay = PET/CT; test system = human, primary tumour; quantity = SUVmax; value = 5
